Measurements from different studies.
Parts stem from different laboratories: compare values within a part only. Substitutions count along the parent as printed.

Study 1 — method: DHFR PCA, deep sequencing; medium: yeast; added: (+)-ABA 0.032 µM; reference: wild-type fitted maximum; reading: higher = stronger binding; measurement: relative binding score
Target: ABI1, truncated, D143A, DHFR fusion (Arabidopsis thaliana)
Setting: methotrexate growth selection, single substitutions
Starting sequence: PYL1, truncated, DHFR fusion (Arabidopsis thaliana); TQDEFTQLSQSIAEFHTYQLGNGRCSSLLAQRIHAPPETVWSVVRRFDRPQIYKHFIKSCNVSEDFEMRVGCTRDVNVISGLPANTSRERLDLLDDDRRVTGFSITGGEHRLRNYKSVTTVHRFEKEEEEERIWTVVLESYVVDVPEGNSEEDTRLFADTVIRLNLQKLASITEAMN; partner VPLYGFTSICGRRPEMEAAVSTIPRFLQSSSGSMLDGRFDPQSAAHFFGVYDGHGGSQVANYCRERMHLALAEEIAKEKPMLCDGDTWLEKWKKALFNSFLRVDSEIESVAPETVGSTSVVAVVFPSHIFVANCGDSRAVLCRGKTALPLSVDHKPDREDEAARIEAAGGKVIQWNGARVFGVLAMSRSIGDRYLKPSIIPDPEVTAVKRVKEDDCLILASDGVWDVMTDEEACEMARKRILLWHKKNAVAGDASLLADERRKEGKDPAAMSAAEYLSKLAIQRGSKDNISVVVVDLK
V136R: -6.3%
I12E: -4.17%
E174K: -2.82%
V44S: -3.37%
V161W: 68.8%
S80Y: 57.4%
I162C: 9.51%
R98W: 5.75%
R69E: 15.4%
R99V: -4.42%
I79Y: 30.4%
D96G: 1.16%
T39L: 46.1%
A175Q: 21.6%
A30P: -5.17%

Study 2 — target: CEBPA, bZIP domain (human); method: DHFR protein complementation; medium: yeast; reference: wild-type JUN-FOS pair; reading: higher = stronger binding; measurement: binding fitness
Setting: single substitutions, most at no-binding floor
Starting sequence: JUN, bZIP domain (human); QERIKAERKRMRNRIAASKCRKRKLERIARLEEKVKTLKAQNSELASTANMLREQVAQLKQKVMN; partner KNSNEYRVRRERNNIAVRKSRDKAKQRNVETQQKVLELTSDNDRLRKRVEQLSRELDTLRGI
E44R: -1.46 natural log
L38V: -1.5 natural log
L45Q: -1.48 natural log
A40P: -1.55 natural log
Q41M: -1.51 natural log
V35A: -1.49 natural log
V56E: -1.45 natural log
K36M: -1.22 natural log
E33D: -1.42 natural log

Study 3 — method: RNA Bind-n-Seq; form: RNA; medium: in vitro; concentration: 365 nM; reference: no-protein control; reading: higher = stronger binding; measurement: RBNS enrichment (R)
Target: RNA binding protein fox-1 homolog 2, RRM domain, GST-SBP tag (RBFOX2, Homo sapiens, UniProt O43251-10, residues 100-194)
Setting: natural RNA segment, single round, ends assumed
Constant ends, left off below: GGGAGUUCUACAGUCCGACGAUC … UGGAAUUCUCGGGUGCCAA
Target sequence (chain): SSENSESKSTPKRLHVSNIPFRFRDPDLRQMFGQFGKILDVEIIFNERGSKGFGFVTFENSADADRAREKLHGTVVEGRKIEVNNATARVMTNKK
GAAAUUGUGGGGGGAAGGUAGGAGGCACAUCAAUAAAGAGGAAACCACCAAGCUGAACUGAAUUUUGCUUGUGUUGCUCCCCUCGUCCCGCUGAUUUUAAGUCUUUCCAA: 0.293
GUUAGGGAUGCUAAGAAGAGCCCACAAAUAGAGGAUUACUCUUCCCCUGAAUCUCUAAACUCAGAAACAAUUACCAAAAAAUACAUAACUCUUCCUUGUAGGGCCCUUUC: 0.813
CAAACUUGCUUGUGAUUGACUUGGUGCAAUACAGUUCCUUUCUAAACGUUUCUGGUUUAGAGAAUACUCAGCCAUCCUGGAAACUAGCAAUAUUUAUUUUGCCUCAUUUA: 0.316
GGGCCAAGCGCUGGCCCCUCAGCGGUGAGCCCUGCCCACUCUUACCGAGCAAGGUGGGUGGCUCUGGCACGAGUCCCCCAGGGGGAGAGCAUGGCUACCAGGGAGCUGCA: 13.5
UCCAUUUUCUCAACAGCUGGAGGCCUCUCAGGCACCAUCGCUCGAGUGGCUGCUGGCUCUCAAGCUGCCAUUUUUUCCUGAUGCAAAAAAUGAAAGCAGGCAAAAGUGCU: 0.225
AAUUUCUGAAACUGUUUACAAGGAAUUUUGAAAAACAGGGAUGUUUAAAUGAUGCCGGCUCUGUUUUUCUGUAAAUAAAUUUGCAUAUUUUGUAGGACUUUUAAUUGUAA: 1.14
UUUGAAACAGUUUCACUGUGUCUGCCUGACUGGUCUGAAACUCACUAAGUAAACCAGGCUAGUUUCAAACACAGAUCUGCCUGCCUCUGCCUGCCAAUGCUCCAACUGAA: 0.973
AGGAUUCAUGAUUUCUGAUACUGCUGAUCAAAAAUGCGCGCAAAUAAAGAAUGUUGGUCAAUACUGGUAUGAAGACUCUUGGCCUUUCAGAAUGAAACCCCAGAUUCCUG: 1.88

Study 4 — target: UBE2T UBC core domain (UniProt Q9NPD8); method: yeast two-hybrid; medium: yeast; setting: mostly zero background; reference: not given; reading: higher = stronger interaction; measurement: lacZ reporter activity
B1: ZNRF4 RING domain (UniProt Q8WWF5); chain VRTFTWHNDLCAICLDEYEEGDQLKILPCSHTYHCKCIDPWFSQAPRRSCPVCKQSVAATEDSF
B2: MKRN3 RING domain (UniProt Q13064); chain FAVQRGMDKVCGICMEVVYEKANPNDRRFGILSNCNHSFCIRCIRRWRSARQFENRIVKSCPQCRVTSELVIPSE
B3: MARCHF1 RING domain (UniProt Q8TCQ1); chain TAPRSQSRLSVCPSTQDICRICHCEGDEESPLITPCRCTGTLRFVHQSCLHQWIKSSDTRCCELCKYDFIMETKLKPLRKWE
B4: NFX1 RING domain (UniProt Q12986); chain IEQLTTEKYECMVCCELVRVTAPVWSCQSCYHVFHLNCIKKWARSPASQADGQSGWRCPACQNVSAHVPNTY
B5: HLTF RING domain (UniProt Q14527); chain LILSSGSDEECAICLDSLTVPVITHCAHVFCKPCICQVIQNEQPHAKCPLCRNDIHEDNLLE
Construct (chain): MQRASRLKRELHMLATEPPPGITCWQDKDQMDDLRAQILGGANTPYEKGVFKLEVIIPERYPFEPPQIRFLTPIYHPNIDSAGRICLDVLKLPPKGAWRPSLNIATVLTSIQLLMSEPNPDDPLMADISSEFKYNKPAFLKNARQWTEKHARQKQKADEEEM
FAEQPSVKLCCQLCCSVFKDPVITTCGHTFCRRCALKSEKCPVDNVKLTVVVNNI (TRAF7 RING domain (UniProt Q6Q0C0)): 0
B1 (ZNRF4 RING domain): 0
B2 (MKRN3 RING domain): 0
ASEEEFQFLRCQQCQAEAKCPKLLPCLHTLCSGCLEASGMQCPICQAPWPLGADTP (PML RING domain (UniProt P29590)): 0
EIKEYKARLTCPCCNTRKKDAVLTKCFHVFCFECVRGRYEARQRKCPKCNAAFGAHDFHR (RNF40 RING domain (UniProt O75150)): 0
B3 (MARCHF1 RING domain): 0
B4 (NFX1 RING domain): 0
DDVLTKDAGECVICLEELLQGDTIARLPCLCIYHKSCIDSWFEVNRSCPEHPAD (ZNRF1 RING domain (UniProt Q8ND25)): 0
B5 (HLTF RING domain): 0

Study 5 — target: CCNA2, cyclin fold, Cln2 fusion (human); method: yeast growth competition, sequencing; medium: yeast; setting: strong parent motif; reference: not given; reading: higher = stronger binding; measurement: normalised enrichment score
Starting sequence: DTL docking peptide (human); PSSMRKICTYFHR
PSSMRKICAYFHR [T9A]: 1.33
PSSMRKICTYAHR [F11A]: 0.743
PSSMRAICTYFHR [K6A]: 1.64
PASMRKICTYFHR [S2A]: 1.22
PSSMRKACTYFHR [I7A]: 1.15
PSSMRKIATYFHR [C8A]: 0.874

Study 6 — method: protein binding microarray; form: double-stranded DNA, one strand shown; medium: in vitro; concentration: not given; reference: not given; reading: higher = stronger binding; measurement: E-score
Target: Histone acetyltransferase KAT6A, winged helix 2, GST fusion (KAT6A, Homo sapiens, UniProt Q92794, residues 85-181)
Setting: 8-mer, flanks averaged, mean of 2 arrays, mostly near background
Target sequence (chain): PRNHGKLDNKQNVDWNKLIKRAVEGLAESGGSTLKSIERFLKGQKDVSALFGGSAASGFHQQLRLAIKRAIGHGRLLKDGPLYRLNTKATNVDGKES
CGATAGCA: -0.0822
TAGCTTGA: 0.0232
ATGCTAGC: 0.0514
CAACAGGG: 0.136
ACATACGA: -0.055
AAGCTCGG: 0.123
GTATTCAC: 0.0673
CAAGACTC: -0.0229
CGCCACCC: 0.0618
CCGTCTAA: 0.0135
AACTCGTA: -0.00187
CCCAAGGC: 0.0175
CATAGGGG: -0.17
AGCAGCAT: 0.092
CGACTGAG: -0.0486
CTCGGTGA: -0.00413
GAAAGGTC: -0.173
ACGCAGGC: 0.156

Repeated from above (study 2):
E44R: -1.46 natural log
L38V: -1.5 natural log
L45Q: -1.48 natural log
A40P: -1.55 natural log
Q41M: -1.51 natural log
V35A: -1.49 natural log
V56E: -1.45 natural log
K36M: -1.22 natural log
E33D: -1.42 natural log
